Assay results of several laboratories.
A part holds a random share of what one study measured.

Series 1
Target: Phosphate system positive regulatory protein PHO4, full length, GST-tagged (PHO4, Saccharomyces cerevisiae, UniProt P07270, residues 1-312)
Technique: competition protein-binding microarray
Molecule type: double-stranded DNA, one strand shown
Matrix: in vitro
Concentration: 2 µM
Setting: whole 60-bp probe, lowest competitor level
With: Cbf1 competitor, 0.05 µM
Reading: higher = stronger binding
Shared flanks, not repeated: … GTCTTGATTCGCTTGACGCTGCTG
Construct (chain): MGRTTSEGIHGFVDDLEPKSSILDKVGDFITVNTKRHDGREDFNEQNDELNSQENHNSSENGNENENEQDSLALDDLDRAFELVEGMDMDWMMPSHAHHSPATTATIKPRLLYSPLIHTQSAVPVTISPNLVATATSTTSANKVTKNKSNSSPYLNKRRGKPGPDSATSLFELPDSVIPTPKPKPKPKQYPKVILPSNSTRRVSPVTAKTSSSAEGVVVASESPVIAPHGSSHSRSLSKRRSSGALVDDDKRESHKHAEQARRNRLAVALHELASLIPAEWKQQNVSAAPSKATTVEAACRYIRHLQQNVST
Oligonucleotide	fluorescence intensity
GTCCCACACTACTGGCACGTTTTCTTGATTTTTGTC	14900 a.u.
GTCTTGTCTCATTGCGGGGTGGGTGTCCCCACTTCA	4100 a.u.
CTAACGAAGGTTTTTCACGTGCAATACAAGCCAAGT	13800 a.u.
AAAGCGGTAATTTTTCACGTGTGGTCAAATATCTAT	13200 a.u.
GTTACCTAATAACTTCATGTGATATGCTCCCCCTTC	5800 a.u.
CTTTCCCGATCTTGTGGGGTGGGTGTAGCACATTTG	5770 a.u.
ACCTTGAGCTCGAAAAATGTGACGGATACTTTTTCC	4250 a.u.
CCATATCAGACTGCCCGCGTGGGTATAATTCTGAGG	15300 a.u.
CATACCCAACCTTGCTTTGTGGGTGAAGATATTTGT	3870 a.u.
TCCGGGTTATACCATCACGTGATGGTAAATCCAAAT	14700 a.u.
GTCTTGTCTCATTGGGGTGTGGGTGTCCCCACTTCA	7300 a.u.
GCCATCTGTCGGCCACACTTTGAGCAACAACTACAA	4700 a.u.
CTTCTGTAAATTTGCCCTGTGGGTGGACGCGCCCCG	4580 a.u.
CGGGGTTAAGTTTGTCACACCACTTGCTTGCAGCAG	4350 a.u.
CCGCCTAGCAAACACCTCGTGCCAGTCATTACCGAC	13800 a.u.
CTTCTGTAAATTTTTCACGTGGGGTGAAGCGCCCCG	13500 a.u.
GGATTAGACAATGGAGAAGATGGGATGAGACACATT	3280 a.u.
GAAACCAGATTTTGAGGCGTGCTTTGCAACTGTGAA	8310 a.u.
TCGAGGACGTATTGGCAGGTGAAGTTTTCAGCAACT	3070 a.u.

Series 2
Target: Eukaryotic initiation factor 4A-I (EIF4A1, Homo sapiens, UniProt P60842, residues 1-406, full length assumed)
UniProt P60842, sequence (whole entry, looked up): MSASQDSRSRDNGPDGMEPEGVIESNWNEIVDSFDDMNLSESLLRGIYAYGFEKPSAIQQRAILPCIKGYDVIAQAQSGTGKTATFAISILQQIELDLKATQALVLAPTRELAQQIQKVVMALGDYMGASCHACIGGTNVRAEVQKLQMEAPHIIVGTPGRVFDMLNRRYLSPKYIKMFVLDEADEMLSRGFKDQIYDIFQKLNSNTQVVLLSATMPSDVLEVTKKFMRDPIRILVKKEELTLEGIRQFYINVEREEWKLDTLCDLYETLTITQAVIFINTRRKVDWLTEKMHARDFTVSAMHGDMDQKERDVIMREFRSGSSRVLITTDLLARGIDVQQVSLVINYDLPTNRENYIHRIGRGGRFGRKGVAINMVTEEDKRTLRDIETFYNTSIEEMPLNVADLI
Technique: RNA Bind-n-Seq
Molecule type: RNA
Matrix: in vitro
Concentration: 15 pmol
Setting: 4-mer, random 30-nt RNA, single round
With: DMSO vehicle, 2 mM AMP-PNP
Reference: input library
Reading: higher = stronger binding
Oligonucleotide	4-mer enrichment [fold]
AUCC	1.28
UACA	0.677
CACA	0.911
AGUU	0.794
ACCG	1.46
ACAG	1.06
GGAG	1.14
GAUG	0.965
GAUU	0.933
GGUG	0.942
GGGU	0.901
GUCC	0.981
AUAG	0.776
ACCU	1.09
GCCU	1.47
GAGC	1
AGGU	0.896
GGUC	1.08
UUAC	0.907

Series 3
Organism: Saccharomyces cerevisiae
Effect on: binding
Technique: yeast competitive growth sequencing
Molecule type: peptide
Strain: cyclin A1-Cln2 strain
Matrix: peptide tiling library
Reading: direction not given
Sequence	enrichment score
KDDDKAWEYEERDRRS	-0.231
KPITLDTTDFQESFVT	0.547
ALLRRLQDVANDRGSH	-0.216
RDLFDCDFGDLTPLDF	1.32
EPKTLFLGAGDFQF	1.34
SPREGHMMDALYAQVK	0.303
TSSAQRRLEIPSGGAD	-0.38
KSKHEEEEWTDDDLVE	1.27
SDSTVTKLDFDLEP	0.416
QDYERRLLRQIVIQNE	0.0633
TSPGPVLLHPSPSTTQ	0.6
RSLKLDGLLEEN	-0.997
IQKKLRFEDTLEFVGF	-1.05
VLLKRLQDVVSERANH	-0.924
RVSGLLSWTLSRVLWL	0.0145

Series 4
Target: Histone acetyltransferase KAT6A, winged helix 1, GST fusion (KAT6A, Homo sapiens, UniProt Q92794, residues 1-85)
Technique: protein binding microarray
Molecule type: double-stranded DNA, one strand shown
Matrix: in vitro
Concentration: not given
Setting: 8-mer, flanks averaged, mean of 2 arrays, mostly near background
Reference: not given
Reading: higher = stronger binding
Residues (chain): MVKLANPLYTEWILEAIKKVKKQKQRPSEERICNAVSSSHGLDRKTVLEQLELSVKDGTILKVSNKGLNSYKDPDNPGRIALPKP
Oligonucleotide	E-score
ACACACGC	0.122
CCCGAGCA	-0.13
TATCTACA	-0.132
CGACGATA	0.0624
AAGAGCCC	0.0249
AGTTCTTA	-0.28
CCACCGTA	0.0744
ATTTTTGA	-0.0795
CAGTAAAA	-0.155
AACCGGGC	0.204
TTCACCAA	-0.0958
CGCGATCA	0.229
ATATTTTG	-0.203
GATTGTCC	0.0283
CCGCGGTA	0.45
AAAGGTCA	-0.0953
AGAGTTGG	-0.184
ACGCCAAC	0.0153
TCGTTACA	-0.0502
GTATAAAC	-0.0419
GTAGCGAA	-0.00855
CTAGGACA	-0.142
ACTTTAAA	0.0845
AAAGTCGT	-0.0717
ATTCCTAA	-0.147

Series 5
Target: Sal-like protein 4, full length isoform B (SALL4, Homo sapiens, UniProt Q9UJQ4-2, residues 1-616)
Technique: universal PBM
Molecule type: double-stranded DNA, one strand shown
Matrix: in vitro
Concentration: not given
Setting: 8-mer, flanks averaged, mean of replicates
Reading: higher = stronger binding
Oligonucleotide	E-score
CACCACTG	-0.116
CCGTTGCG	-0.217
AACGTCCG	-0.251
GCGAGTTA	-0.0258
TCTTCGAA	0.00307
GCGCGAGA	-0.0858
GCACAACC	-0.279
TCGGTTAA	0.0795
CGAGAGGC	-0.339
GCCAACAC	-0.0576
GAAGCGCA	-0.252
CTTGGTCA	0.0325
TAGGACGA	-0.0503
ATCCTTAG	0.0426
GCGGATGA	-0.0118
GTGCACAA	-0.0337
GAGATTCC	-0.182
CCCGTAGC	-0.323
CTTCCGGC	-0.15
CGTTGCAC	-0.0215
ATTGATCG	0.0853
ATTTAGCC	0.139
GTTAGCCA	-0.124
CACGACGC	-0.256
CGTGTAAG	0.0657

Series 6
Target: RNA binding protein fox-1 homolog 2, RRM domain, GST-SBP tag (RBFOX2, Homo sapiens, UniProt O43251-10, residues 100-194)
Technique: RNA Bind-n-Seq
Molecule type: RNA
Matrix: in vitro
Concentration: 365 nM
Setting: natural RNA segment, single round, ends assumed
Reference: no-protein control
Reading: higher = stronger binding
Shared flanks, not repeated: GGGAGUUCUACAGUCCGACGAUC … UGGAAUUCUCGGGUGCCAA
Residues (chain): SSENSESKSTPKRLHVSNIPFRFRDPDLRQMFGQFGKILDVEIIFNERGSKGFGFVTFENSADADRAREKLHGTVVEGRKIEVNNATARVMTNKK
Oligonucleotide	RBNS enrichment (R)
GAUCUGAUUUUCUUUCUUCUUUCUUUUUUUCUAAUUGAGAGGAUUAUUCCCAGUAAGCUUCCAUGACCCUUUCUUGGAGGCCUUCACAGGUAAUACAGAUACUGGCACUG	0.316
CCCUGCCCUGGUCCUCUUCCUGCCUCCUGUAAAUAUCUGUAUCUAGACCAGAAUAUUUUGUCCAAGUAUAAAACAACAACAACAAAAAAUCAUGGUGUCAUUGUCUGGGG	0.445
GGGCACUAACACGUGUGCGUUCCUGGCGGGCACACUCAGGACCGUGCCUCACAGGGCCCACUCCCUGCCUAUGCCUCCCUCUUGGGGGGCCGAGGAGGGCGGCUGCUCUG	0.148
GCUGGGGAUUGGAUGAAAGUCAAAGGUUGUCUACUUUAAGAAAAUAAAAUACCCUGAAUGGAGCCCAGCAUUGUCCCAGUGUGCUAUGUGUGUAGCUGACCUGUGGCUGG	1.15
AGAUGAACGCAGCAUGAAUCUCAUUUCCAUUUCUAAGCAGCUGGGUGGUGCGGCGAUUCUUUAGUUCCUGUUUUGUUUUUUUUCCUUUUCAAGCGCUAUCCACAUCUGAC	3.31
UAUUAUAUACAGAUUUUAAAAAAGAGAUAAUGCCUAUGUACCAGGGAGAAGGAGCGGGCCCUCCCGCGCCCUGUGCUGGCCGGAGCAGCGUUUUCUUAUGGUGGAGCAGC	0.342
AUACUCUUGGUUGACAUCCCCUUCCUCAGCCCUCCCAGCCUACUCCCCAUCCCAGCUUUUAGAGGAUCUGCUCCACUGUCUCCUGGGGCAGUUGUGGGUCACUGUCCCUU	0.707
UUCUUCUCUUCUAUCAUCCAAAUCAAAUGUAAGAAGUCCCUCACAUCCGAUUAGCCCAACUCUGUCUCCCAGGCCCCCUGCUGGGAAACCCAUACCCAGCAUCCCUCCCC	0.657
GAACAACAAUGUAAAACCUGUUCUGUCACAAAUGUUCCUGAAAGCACCACAGCUACUCAAGAAGAUCAAAUUCAGGACAUAAACUUUAUUGAACAUAAUAACCAGUGUUU	0.304
AUACAUUUUGGUGACUUCUGACUCUCCUUCCACCUCCCCACUGUACACUGUGGUACAGAUAGUUGGCACUAUCCUAGUUAUGGCAUCAGGUAGGAGAAGGAGACGAAGAU	0.69
AAAACUUUGAAAGUUUCUUUCUUUAAAAUGGGAAAUACUCAAUAUCUAAAUCCAGGUCAGGCAUGGGAUAUCAGUAUUUAACAUUGGAUGUUUUAUGUUUUAUAUUUAUA	3.85
AAUUGAGCUAUUUUCACUUACUGUGUAACAGAGACAGAUAAUAAAUCUAUCAUUUGAUUUGAACUUGGCUGUGAAGACUUUUUAUUGUUCCAGUGGCUACGGUGGUGGUG	0.536

Series 7
Target: RING finger protein unkempt homolog, zinc fingers 1-6, SBP tag (UNK, Homo sapiens, UniProt Q9C0B0, residues 30-357)
UniProt Q9C0B0, sequence (30-357, looked up): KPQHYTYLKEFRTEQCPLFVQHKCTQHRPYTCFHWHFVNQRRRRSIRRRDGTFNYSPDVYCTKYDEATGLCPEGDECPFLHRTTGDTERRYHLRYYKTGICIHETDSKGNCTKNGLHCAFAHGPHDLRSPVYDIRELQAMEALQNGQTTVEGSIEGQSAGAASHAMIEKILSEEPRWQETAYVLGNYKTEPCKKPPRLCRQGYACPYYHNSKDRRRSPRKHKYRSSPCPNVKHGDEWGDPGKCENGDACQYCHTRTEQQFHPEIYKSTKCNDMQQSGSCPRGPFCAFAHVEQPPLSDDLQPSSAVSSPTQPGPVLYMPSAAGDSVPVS
Technique: RNA Bind-n-Seq
Molecule type: RNA
Matrix: in vitro
Concentration: 100 nM
Setting: RNA with constant flanks, vertebrate orthologous sites, ends assumed
Reference: input RNA pool
Reading: higher = stronger binding
Shared flanks, not repeated: GGGAGUUCUACAGUCCGACGAUC … CAACAGAGGAUUGAGCAUCA
Oligonucleotide	bound/input enrichment [ratio]
GCCUCCAGCAGGCAAAUUCAGGGGGAGAGAGGCUUCAGGGAGUAUAAAUUUAUUUAAUAGUAGUGAUCAUGAAGUAUAAACUUGAUAUAAUUGAAUGAUUUGGGGGAGUGAUGACAAACU	1.67
CAUCUCUCAUUUUAUAUGUUCAAAAGAUCUUUGAAUCUUUGAACAAUUGUUAGUUUUAAUUAGCUCUGCCCUCAUGAAGUGUUAUUAUAAUUCACCACAAACAGAUCUCUGUCUGAAUUA	1.69
AUUUAGAAUAUUCAUGAAUGGCUCCAAGAUGUGUGAAGUCCGUUCUGUAGGAUGAGACCACAGCAUGGUGACUGUGUGUGUGUGUGUGUGUGUGUGUGUGUGUGUGUAUCGCUGCCAAAG	1.41
UUCAGGCACAACUGACUGGUUCACAGCAUUCCUUACAUAGUUAUCUAUCAAAUGCAAAUGUAGUUAAUUUUCAGGAAACAAGCAGGCAGUCAUCUUUAUCCUGUAGCCCAAUUGGAGAGU	1.77
UAUUAGCAUCAUACCAGCAUAUUAACCUCUCGUCUGUGCACAGCUUCAAAUGUUACCGUCUAGUUAGAUUUUUAUUUAAAAUAUGAAAAACUGCUUUUCCCAAGAAGUUUUUUAAAAACA	2.65
UUCACCACUCCUGGGUGCGUGAUUGAGGGUGAAGCAUCCACCAGCACUGCAAGGGGUCCAUAGUAUUUUUUUUUUUUUUUUUUUUUACACUGUCAGAAUUUCUUUCUUAGAUUUAAUUGA	9.82
UUUUAUUGAUCAGGUUUGUAAAUGUGUACCAACAAAAUCAGAGUUUAUUUAUAAACAGAAUAGAUUAUUUAAAGAGACGGUCUUUCCUCAUUGAUAUUGUGGUAUGCUUUAAUUCCAUUU	0.218
UUGGGACCAGCUCUCCAAAUAAGAAUAGUAGUAAAAAAAAUAAGCAAAAUGAUAUUUGUAUAGAAAAAACAGAAGUUAAAUCAUGUAAAAUAAAUGCUGCCAACAUAGCAAGCCCUAGAG	2.88
AUUUAGAAUGUUAAUAAAUUGCUCUGAGUUUCCUCAAGUCCAUUUUGUAAGAUCAGACCAUAGGUGGGUGUUGUUUCUUUUAAGUGUGUGUACUGUGUCCAAUGUUACAUUUUUAGAAGU	2.67
GAGCUAAAGGAGUUAGUAUCUUUAUUUUUGUAUCAAAGAUAAAGGUUAUUUUGCAAUUAUUAGGAUUUCUACACAACUCUGAUCUCUGUUGCUUUUGUAAACAAAUUCUUUGAUUUUAGG	0.775
GGAGAUAAUGAAUAUUAAAGAAACAUUCUCGUCUUCCUUUACCUUUUGUCCCCUAAUACCUAGUCUACUUUUUAAACUUUCAGACUUCACUGCUUUUUGAAUUCAUAAUUCUAAUUUUCA	0.851

Repeated from above (series 4):
Oligonucleotide	E-score
AAAGTCGT	-0.0717
ATTTTTGA	-0.0795
AACCGGGC	0.204
TATCTACA	-0.132
CCGCGGTA	0.45
GTAGCGAA	-0.00855
AGAGTTGG	-0.184
CTAGGACA	-0.142
ACTTTAAA	0.0845
ATATTTTG	-0.203
TTCACCAA	-0.0958
AGTTCTTA	-0.28
ACGCCAAC	0.0153
CCACCGTA	0.0744
